Measured values pooled from the literature.
Protocols differ between the studies behind these lines. ± marks the error that the study gave.

`CC(C)(C)C(=O)OCOP(=O)(OCOC(=O)C(C)(C)C)C1CCCN(O)C1=O` (stereo not drawn) gave a CC50 of greater than 100 µM (T47D).
`CCCCCCCCCCCC(=O)N[C@@H](CCCNC(=N)N)C(=O)N[C@@H](Cc1c[nH]c2ccccc12)C(=O)N[C@@H](CCCCN)C(=O)N[C@H](C(=O)N[C@@H](Cc1ccccc1)C(=O)N[C@@H](CCCCN)C(=O)N[C@@H](CCCCN)C(=O)N[C@H](C(=O)N[C@@H](CCC(=O)O)C(=O)N[C@@H](CCCCN)C(=O)N[C@H](C(=O)NCC(=O)N[C@@H](CCC(N)=O)C(=O)N[C@@H](CC(N)=O)C(=O)N[C@H](C(=O)N[C@@H](CCCNC(=N)N)C(=O)N[C@@H](CC(=O)O)C(=O)NCC(=O)N[C@H](C(=O)N[C@H](C(=O)N[C@@H](CCCCN)C(=O)N[C@@H](C)C(=O)NCC(=O)N1CCC[C@H]1C(=O)N[C@@H](C)C(=O)N[C@H](C(=O)N[C@@H](C)C(=O)N[C@H](C(=O)N[C@H](C(=O)NCC(=O)N[C@@H](CCC(N)=O)C(=O)N[C@@H](C)C(=O)N[C@@H](C)C(=O)N[C@H](C(=O)N[C@H](C(N)=O)[C@@H](C)CC)[C@@H](C)O)C(C)C)C(C)C)C(C)C)C(C)C)[C@@H](C)CC)[C@@H](C)CC)C(C)C)[C@@H](C)CC)[C@@H](C)CC` has a dead cells of greater than 80% (MX1; trypan blue exclusion; 6 µM, 24 h).
For `NC(=O)N/N=C/c1ccc(OCc2cccc(F)c2)cc1`, “catalase activity (OD450)” read 0.049 a.u. (IMR-32; 300 µg/mL, 24 h; higher = more activity).
For `CC(C)Cc1ccc(C(C)C(=O)[Se]CC(=O)Nc2cccc(C(F)(F)F)c2)cc1` (stereo not drawn), the CC50 was 12 µM (NCI60 melanoma subpanel; cytotoxicity, inhibitor; five-dose).
The EC50 of `CC[C@H](C)[C@H](NC(=O)[C@H](Cc1c[nH]c2ccccc12)NC(=O)[C@H](CCCCN)NC(=O)[C@H](CO)NC(=O)[C@H](CC(C)C)NC(=O)[C@H](Cc1ccccc1)NC(=O)[C@@H](NC(=O)[C@H](CCCCN)NC(=O)[C@H](CC(C)C)NC(=O)[C@H](CC(C)C)NC(=O)[C@H](CCCCN)NC(=O)[C@@H]1CCCN1)[C@@H](C)O)C(=O)NCC(=O)N[C@@H](CS)C(N)=O` is reported as greater than 100 µM (human red blood cells; pH 5.5; reference: Triton X-100).
`Cc1cc(Oc2nc(N3CC[C@@H](c4ccncc4)C3)ncc2F)[nH]n1` has an IC50 of greater than 100 µM (A673; cell proliferation; muscle cancer).
`O=c1n(CCNCCOS(=O)(=O)c2ccccc2)c(=O)n(S(=O)(=O)c2ccccc2)c(=O)n1S(=O)(=O)c1ccccc1` gave a viability of 62.1% (A549; cell growth or viability, MTT; 12.5 µg/mL, 24 h).
For `CC1CCC2C(C)C(OC(=O)CCC(=O)N3CCC(Nc4ccc(S(=O)(=O)NC(=O)c5ccc(N6CCN(CC7=C(c8ccc(Cl)cc8)CC(C)(C)CC7)CC6)cc5Oc5cnc6[nH]ccc6c5)cc4[N+](=O)[O-])CC3)OC3OC4(C)CCC1C32OO4` (stereo not drawn), “late apoptotic cells” read 3.5% (THP-1; annexin V/PI flow cytometry, measured: annexin V+/PI+; 0.2 µM, 24 h).
With `CSCC[C@H](NC(=O)[C@@H](NC(=O)[C@H](CCC(N)=O)NC(=O)[C@H](CO)NC(=O)[C@@H](N)C(C)C)[C@@H](C)O)C(=O)N[C@@H](CCCNC(=N)N)C(=O)N[C@@H](CCC(N)=O)C(=O)N[C@H](C(=O)N[C@@H](C)C(=O)N[C@H](C(=O)N1CCC[C@H]1C(=O)N[C@@H](CC(C)C)C(=O)N[C@@H](CC(C)C)C(=O)N[C@@H](Cc1c[nH]c2ccccc12)C(=O)N[C@@H](Cc1ccccc1)C(=O)N[C@@H](Cc1c[nH]c2ccccc12)C(=O)N[C@H](C(=O)NCC(=O)N[C@@H](CO)C(=O)N[C@@H](CC(C)C)C(=O)NCCOCCOCCOCCOCCOCCOCCOCCOCCOCCOCCOCCOCCC(=O)N[C@@H](CS)C(N)=O)[C@@H](C)O)C(C)C)[C@@H](C)O` the selectivity ratio was 1.5 ± 0.36 (H2882 lung carcinoma; cell binding, phage binding, measured: output/input phage; 10 min, 37 °C; reference: control phage).
`Cc1c(Cl)cccc1Nc1ccccc1C(=O)[Se]CC(=O)Nc1cccc(C(F)(F)F)c1` has a CC50 of 9.24 µM (NCI60 leukaemia subpanel; NCI60 five-dose screen).
Under “mean fluorescence intensity”, `O=C(O)c1ccc(-c2nc(-c3ccccc3Cl)c3sccn23)cc1` is recorded as 43900 a.u. (HEL; flow cytometry, measured: surface CD71; 0.01 mM; higher = more expression).
For `O=C(C[Se]C(=O)c1cccnc1Nc1cccc(C(F)(F)F)c1)Nc1cccc(C(F)(F)F)c1`, the CC50 was 10.2 µM (NCI60 leukaemia subpanel; NCI60 five-dose screen).
`CC(C)[C@H](NC(=O)[C@H](CCCNC(=N)N)NC(=O)[C@@H]1CCCN1C(=O)[C@@H](NC(=O)[C@H](C)NC(=O)[C@H](Cc1ccc(O)cc1)NC(=O)[C@H](CCC(N)=O)NC(=O)[C@H](CCCCN)NC(=O)[C@H](CCCNC(=N)N)NC(=O)[C@@H]1CCCN1C(=O)[C@H](CCC(=O)O)NC(=O)[C@@H](NC(=O)[C@H](C)N)[C@@H](C)O)[C@@H](C)O)C(=O)N[C@@H](Cc1ccccc1)C(=O)N[C@@H](Cc1c[nH]c2ccccc12)C(=O)N[C@H](C(=O)N[C@@H](CC(=O)O)C(=O)N[C@@H](C)C(=O)N1CCC[C@H]1C(=O)NCC(=O)NCCOCCOCCOCCOCCOCCOCCOCCOCCOCCOCCOCCOCCC(=O)N[C@@H](CS)C(N)=O)[C@@H](C)O` gave a selectivity ratio of 0.56 ± 0.14 (H2122 lung adenocarcinoma; cell binding, phage binding, measured: output/input phage; 10 min, 37 °C; reference: control phage).
For `COc1ccccc1-c1ccncc1C(=O)Nc1nnc(OCc2ccc(Cl)cc2)s1`, the colony survival was 38.9% (RPE-1 TP53-/- BRCA1-/-; 4 µM, average of 2 runs; reference: untreated).
`C[C@H]1O[C@@H]2C3=C(O[C@]2(C)[C@@]1(O)C=O)C(=O)c1c(O)cccc1C3=O` gave a selectivity index of 1.97 (A549 and Vero; MTT; reference: CC50 Vero over EC50 A549).
`CC(C)CC(O)(CC(C)C)c1cn(C(=O)N2CCCC2)nn1` gave an SILAC ratio of 0.93 (mouse T-cells; protein abundance, unenriched SILAC proteomics, measured: TFG; 1 nM, 6 h, protein median; reference: DMSO).
For `CSCC[C@H](NC(=O)[C@H](CCC(=O)O)NC(=O)[C@H](CS)NC(=O)[C@H](Cc1ccccc1)NC(=O)[C@H](CC(N)=O)NC(=O)[C@@H]1CCCN1C(=O)[C@@H]1CCCN1C(=O)[C@H](CC(N)=O)NC(=O)[C@H](CC(C)C)NC(=O)[C@H](CCSC)NC(=O)[C@H](CC(C)C)NC(=O)[C@H](CS)NC(=O)[C@H](CCC(N)=O)NC(=O)CNC(=O)[C@H](Cc1ccc(O)cc1)NC(=O)[C@@H](NC(=O)[C@@H](NC(=O)[C@@H]1CCCN1C(=O)[C@@H](N)CS)C(C)C)[C@@H](C)O)C(=O)N[C@@H](CC(=O)O)C(=O)NCC(=O)N[C@@H](CCC(N)=O)C(=O)N[C@@H](CS)C(=O)N[C@@H](CCCCN)C(=O)O`, NF-κB level read “decreased” (RAW264.7; Western blot, measured: NF-κB over β-actin; 0.1 and 1 µg/mL, added: LPS).
For `CC(C)C[C@H](NC(=O)[C@H](CC(=O)O)NC(=O)CNC(=O)[C@@H](N)CCCNC(=N)N)C(=O)N[C@@H](C)C(=O)N[C@H](C(=O)N[C@@H](CC(C)C)C(=O)N[C@@H](CCCNC(=N)N)C(=O)N[C@@H](CCC(N)=O)C(=O)N[C@@H](CC(C)C)C(=O)N[C@@H](C)C(=O)N[C@@H](CCC(N)=O)C(=O)N[C@@H](CCC(=O)O)C(=O)N[C@@H](CC(=O)O)C(=O)NCC(=O)N[C@H](C(=O)N[C@H](C(=O)NCC(=O)N[C@H](C(=O)N[C@@H](CCCNC(=N)N)C(=O)NCCOCCOCCOCCOCCOCCOCCOCCOCCOCCOCCOCCOCCC(=O)N[C@@H](CS)C(N)=O)C(C)C)C(C)C)C(C)C)[C@@H](C)O`, the selectivity ratio was 47 ± 16 (PC-9; phage binding; reference: targeting over control phage).

Repeated from above:
For `NC(=O)N/N=C/c1ccc(OCc2cccc(F)c2)cc1`, “catalase activity (OD450)” read 0.049 a.u. (IMR-32; 300 µg/mL, 24 h; higher = more activity).
